Measured values collected from several papers.
Lines come from different studies, so protocols differ. Values joined by “and” are separate records of one study, mostly repeats; a detail may differ. ± marks the error that the study gave.
UniProt O88693, sequence (whole entry, looked up): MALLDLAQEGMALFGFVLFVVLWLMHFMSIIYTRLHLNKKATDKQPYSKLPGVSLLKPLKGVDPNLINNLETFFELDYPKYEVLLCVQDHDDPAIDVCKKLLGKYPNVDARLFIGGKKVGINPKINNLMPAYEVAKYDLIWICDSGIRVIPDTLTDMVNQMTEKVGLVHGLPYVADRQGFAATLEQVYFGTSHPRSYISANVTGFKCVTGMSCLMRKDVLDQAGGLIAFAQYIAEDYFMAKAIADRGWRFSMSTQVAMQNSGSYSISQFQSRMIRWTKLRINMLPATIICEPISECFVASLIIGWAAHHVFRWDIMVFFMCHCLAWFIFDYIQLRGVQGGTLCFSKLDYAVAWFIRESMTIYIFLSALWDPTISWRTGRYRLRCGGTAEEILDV

Compound	tested on	test	system	setting	scale	quantity	value
Cc1ccc(-c2ccc([C@H]3[C@@H](F)[C@@H](F)C[C@@H](F)[C@H]3F)cc2)cn1		liver microsome stability	human liver microsomes	1 µM, without NADPH		hepatic clearance	3.9 mL/min/kg
N#C[C@@H]1CCCN1C(=O)CNC(=O)c1ccnc2ccc(OCCCN3CCN(C(=O)CCc4ccc5c(c4)CN4CCN6CC(=O)[O][68Ga-]([O]C(=O)C4)([O]5)[O]c4ccc(CCC(=O)N5CCN(CCCOc7ccc8nccc(C(=O)NCC(=O)N9CCC[C@H]9C#N)c8c7)CC5)cc4C6)CC3)cc12	HT1080 cells expressing human FAP			30 min, 37 °C		internalized fraction	79.4 ± 2%
CN1CCCNC(=O)c2cccc(c2)C(=O)NCCCN(C)CCCNc2cccc3c2C(=O)c2cccc(c2C3=O)NCCC1	SAS	RNA-Seq, refers to: GADD45B mRNA		1 µM, 6 h	baseline: untreated cells	log2 fold change	0.226
Cc1ccc(-c2ccc(C3CCCCC3)cc2)cn1		liver microsome stability	human liver microsomes	1 µM, without NADPH		hepatic clearance	11 mL/min/kg
COc1ccccc1-c1ccncc1C(=O)Nc1nnc(OCc2ccc(Cl)cc2)s1	Brca1 Δ11/Δ11 MEFs sgGFP			10 µM		colony count	48 and 38 and 25 and 39 and 19 and 21
CCC(=CCc1c(O)cc2c(c1O)C(=O)CC(c1cc(O)ccc1OC)O2)CC (stereo not shown)	HeLa	cell growth or viability, MTT		0.781 µM, 48 h		inhibition	0.252%
O=S(=O)(Nc1ccc(OC(F)(F)F)cc1)N1CCCC(C2c3ccccc3CCc3ccccc32)C1 (stereo not shown)	D425	immunoblot, refers to: AKT		concentration not given		phosphorylation level	decreased
CC12CCCC(NC(=O)c3ccc(F)cc3)(C1)C1CC(C)(C)C1CC2 (stereo not shown)	HT-29	cell growth or viability, CCK-8		300 µM		inhibition	74.9%
CC(=O)N1C[C@H](O)C[C@H]1C(=O)N[C@H](C(=O)N[C@@H](CO)C(=O)N[C@@H](CC(=O)O)C(=O)COC(=O)c1c(C)cccc1C)C(C)(C)C	THP-1 cells, LPS-primed	pyroptosis, LDH release		25 µM, LPS 1 µg/mL, 4 h, together with: nigericin 5 µM, 2 h		cell lysis	82.7%
CCc1c(-c2ccc3[nH]ncc3c2)cnc(N)c1-c1ccc(O)cc1	CHP-212 resistant sublines, USP7 V517F heterozygous			25 µM		viability	47.7%
CC(C)c1ccc(N(C)c2ccc3c(c2)OCC[C@H]3CNc2cnccc2C(=O)O)cc1	SK-MEL-2	cell viability, CellTiter-Glo		7 days		IC50	140 nM
O=S(=O)(N[C@H]1CCO[C@@H](C2c3ccccc3CCc3ccccc32)C1)c1ccc(OC(F)(F)F)cc1	D425	immunoblot, refers to: AKT		concentration not given		phosphorylation level	decreased
CC(=O)N[C@@H](Cc1c[nH]c2ccccc12)C(=O)N[C@@H](CCC(=O)O)C(=O)N[C@@H](C)C(=O)N[C@@H](CC(=O)O)C(=O)COC(=O)c1c(C)cccc1C	THP-1 cells expressing FKBP-caspase-4	pyroptosis, inhibitor		concentration not given, together with: B/B dimerizer		LDH release	24.1% and 23.8% and 28.3%
CNS(=O)(=O)Nc1nccc(Cc2c(C)c3ccc(Oc4ncccc4F)cc3oc2=O)c1F	HBL-100	cell viability		7 days		IC50	> 1000 nM
COc1cccc(CNC[C@](O)(COCc2ccccc2)[C@@H]2CC[C@@H](C)C[C@H]2OCc2ccccc2)c1	A2780	cell growth or viability, MTT		10 µM, 72 h		inhibition	94.9%
CCC(=CCc1c(O)cc2c(c1O)C(=O)CC(c1cccc(OC)c1O)O2)CC (stereo not shown)	HeLa	cell growth or viability, MTT		6.25 µM, 48 h		inhibition	16.3%
OC[C@@H]1[C@@H](O)[C@H](O)[C@@H](O)CN1CCCCCOCc1ccccc1	Ugcg (Mus musculus, UniProt O88693)	enzyme activity, inhibitor, C6-NBD-ceramide in situ	RAW264.7	together with: C6-NBD-ceramide		IC50	750 nM
CCN(CC)CC(=O)Nc1cccc(-n2cc(-c3ccc4ccc(-c5cn(-c6cccc(NC(=O)CN(CC)CC)c6)nn5)cc4c3)nn2)c1	RCC4	PCR angiogenesis array, refers to: ANGPT1		5 x IC50, 2 h, normoxia	baseline: untreated	fold regulation	-1.1
COc1ncccc1CN(C(=O)OCc1ccc([N+](=O)[O-])cc1F)[C@H]1[C@@H](C)[C@@H]1c1ccccc1 (racemic)	THP-1 wild type cells	MTS		72 h		GI50	> 50000 nM
CC12CCCC(NC(=O)c3ccc4ccccc4c3)(C1)C1CC(C)(C)C1CC2 (stereo not shown)	HT-29	cell growth or viability, CCK-8		300 µM		inhibition	61.5%
C1=[N+]2CCCC[N+]3=Cc4ccc5[n]4[Au-]23[n]2c1ccc2-c1nc2ccccc2nc1-5.F[P-](F)(F)(F)(F)F	SK-MEL-2	NCI60 five-dose screen				TGI	4 -log M
Cc1ncsc1-c1ccc(C(C)NC(=O)C2CC(O)CN2C(=O)C(NC(=O)CCCCCCCCCCN2CCCC(Nc3ncc(Cl)c(Nc4ccccc4S(=O)(=O)C(C)C)n3)C2)C(C)(C)C)cc1 (stereo not shown)	22Rv1	RNA-seq, refers to: TASOR mRNA		concentration not given	baseline: DMSO	log2 fold change	-1.7
